# Published values from different studies.
# Compare with care: the assays were run in different laboratories. Values joined by “and” are separate records of one study, mostly repeats; a detail may differ. ± gives the spread as reported.
Compound,target or system,test,system,conditions,scale,endpoint,result
CC(=O)Oc1ccccc1C(=O)O,,,"male Hartley guinea pigs, anaesthetized","intravenous, 1 mg/kg group, baseline before infusion",,heart rate,247 ± 0.1 beats/min
O=C1NCCc2nc(OCc3cccc(F)c3)ccc21,,modified Irwin test,"Sprague-Dawley rat, male","oral, 100 mg/kg, 4 h",higher = stronger effect,rigid stance score,0
O=C1NC(=O)C(c2ccccc2)(c2ccccc2)N1,human iPSC-derived cardiomyocytes,"MyBP-C/MYH ratio, plate-normalised SD score",,"concentration not given, primary screen",direction not given,activity score,-3.3
Cc1ccc(C(=O)N(CCCN)C(c2nc3snc(C)c3c(=O)n2Cc2ccccc2)C(C)C)cc1 (stereo not drawn),,pneumonia grade ≥3 (CTCAE),human patients,"intravenous, 4 mg/day",,patients with adverse event,0%
CCCCC1=NC2(CCCC2)C(=O)N1Cc1ccc(-c2ccccc2S(=O)(=O)Nc2noc(C)c2C)c(COCC)c1,,,"healthy adult volunteers, plasma","oral, 200 mg, single dose, fed, crushed tablet",,AUC(0-inf),39.5 µg·h/mL
C[C@@H]1CCO[C@H]2Cn3cc(C(=O)NCc4ccc(F)cc4F)c(=O)c(O)c3C(=O)N12,,"population PK, post-hoc","children, 10 to <14 kg, plasma","oral, 20 mg dispersible tablet, 24 h, steady state, geometric mean",,plasma concentration,0.892 µg/mL
Cn1cc(-c2ccc(-c3cncc(Cl)c3N3CCC4(CCNC4=O)CC3)cc2)cn1,COLO 205,"gene expression, microarray, measured: S100A10 mRNA",,"concentration not given, 2 h",relative to: untreated cells,log2 fold change,3.88
CC#CC(=O)N[C@H]1CCCN(c2c(F)cc(C(N)=O)c3[nH]c(C)c(C)c23)C1,,,healthy volunteers,"oral, 0.3 mg single dose, SAD phase I",,adverse events,66.7%
CCCCCCCC(=O)c1c(OC)cc(OC)cc1C(=O)OC,,,mouse,"intraperitoneal, 10 mg/kg",relative to: negative control,organ weight,no effect
CCN(c1cc(-c2ccc(CN3CCOCC3)cc2)cc(C(=O)NCc2c(C)cc(C)[nH]c2=O)c1C)C1CCOCC1,,,"mouse xenograft, lung",dose not given,,organ weight,150 mg
CCN(Cc1ccccc1)Cc1ccc(CNC(=O)c2csc3nc[nH]c(=O)c23)cc1,,haemolysis,human red blood cells,"1 h, 37 °C",,EC50,> 100 µM
CCOc1c([C@H](C)n2nc(C)c3c(N)ncnc32)cc(Cl)c(F)c1[C@@H]1CNC(=O)C1,,,"patients with DLBCL, plasma","oral, 20 mg, day 15, monotherapy",,Tmax,1 h
CNC(=O)c1ccc(-c2cnc3ncc(Cc4ccc5ncccc5c4)n3n2)cc1F,,,Japanese patients,"oral, 400 mg, grade 3/4",,Anaemia dose reduction/interruption,1%
COc1ccc([C@@H](O)c2cc(-c3ncnc4cc(N5CCOCC5)ccc34)c(F)cc2Cl)nn1,,,locally advanced rectal cancer patients,"50 mg, added: capecitabine and radiotherapy",,anaemia TEAE incidence,0%
CCc1c(-c2ccccc2)c(-c2ccccc2)nn1-c1ccccc1-c1cccc(OCC(=O)O)c1,,,Sprague-Dawley rat,"oral, dose not given",,AUMC(0-inf) observed,17600 h²·ng/mL and 13700 h²·ng/mL and 17400 h²·ng/mL
COc1cc(N)c(Cl)cc1C(=O)NC1CCN(CCCOc2ccc(F)cc2)CC1OC (stereo not drawn),,,"male Hartley guinea pigs, anaesthetized","intravenous, 1 mg/kg over 10 min, after infusion",,heart rate,202 ± 0.3 beats/min
Cc1cc(-c2nccc3c2ccn3CC(=O)Nc2ccc(-c3cnccn3)cn2)ccn1,,,human,"15 mg once daily, multiple ascending dose",,subjects with procedural pain,11.1%
CC(C)NCC(O)COc1cccc2ccccc12 (stereo not drawn),,,"male Hartley guinea pigs, anaesthetized","intravenous, 3 mg/kg over 10 min, after infusion",,heart rate,169 ± 0.8 beats/min
COc1cc2c(cc1OC)C(=O)C(CC1CCN(Cc3ccccc3)CC1)C2 (stereo not drawn),,spirometry,human subjects,,relative to: placebo,FVC,0.00389 L
CC(C)(C(=O)N1CCOc2c(C#N)cncc2C1)C(F)F,,measured: renal and urinary disorders,"human, both sexes","oral, 15 mg twice daily, 14 days, multiple ascending dose",,subjects with TEAE,0%
COc1cc2nccc(Oc3ccc(NC(=O)c4cc5c(n(-c6ccccc6)c4=O)CCCC5=O)nc3)c2cc1OC,,,relapsed or refractory AML,"oral, 6 mg once daily",,grade ≥3 Hyperkalaemia patients,0%
O=C(Nc1nc2cccc(-c3ccc(CN4CCS(=O)(=O)CC4)cc3)n2n1)C1CC1,,measured: infections and infestations,human rheumatoid arthritis patients,"oral, 150 mg once daily, 4 weeks, regardless of relatedness",,treatment-emergent adverse events,0%
C[C@@H](Nc1cc(F)cc(F)c1)c1cc(C(=O)N(C)C)cc2c(=O)cc(N3CCOCC3)oc12,,measured: Pneumonitis,advanced solid tumour patients,"oral, dose not given, dose expansion",,related serious adverse events,0%
CO[C@H]1/C=C/O[C@@]2(C)Oc3c(C)c(O)c4c(O)c(c(/C=N/N5CCN(C)CC5)c(O)c4c3C2=O)NC(=O)/C(C)=C\C=C\[C@H](C)[C@H](O)[C@@H](C)[C@@H](O)[C@@H](C)[C@H](OC(C)=O)[C@@H]1C,,,healthy human volunteers,"oral, 600 mg, itraconazole cohort, added: gepotidacin 1500 mg",,incidence of gastrointestinal disorders,18%
Cl.[2H]C([2H])([2H])CC(=O)c1cnc(NC(=O)C2CC2)cc1Nc1cccc(-c2ncn(C([2H])([2H])[2H])n2)c1OC,,geometric mean,human,"oral, 25 mg single dose, fasted, liquid",,AUC(0-inf),2.14 µg·h/mL
CCc1cc(C(=O)NC)c2nccc(N3CCc4c(cc(Cn5ccnc5)cc4-c4cn(C)nc4C(F)(F)F)C3=O)c2c1,,,Sprague Dawley rat,"oral, 50 mg/kg once daily, 7 days",relative to: vehicle,change in ALB,-2.2%
Cc1cc(C)c(CNC(=O)c2cc(Cl)c3c(c2C)O[C@@](C)([C@H]2CC[C@H](N(C)C)CC2)O3)c(=O)[nH]1,,,relapsed/refractory NHL patients,"oral, 200 mg once daily, onset after cycle 1 day 1",,adverse event Arthralgia,16.7%
CN1CCN(c2cccc3c2CCN(C(=O)/C=C/c2c(-n4cnnn4)ccc(Cl)c2F)[C@@H]3C(=O)Nc2ccc(C(=O)O)cc2)C(=O)C1,,,healthy human subjects,"intravenous infusion, 20 mg/h, 5 days",,subjects with treatment-related adverse event,0%
O=C(O)c1cc(O)cc(O)c1,,,human CSF,"concentration not given, mean",,CSF concentration,not detected
C=CC(=O)N1CCC([C@@H]2CCNc3c(C(N)=O)c(-c4ccc(Oc5ccccc5)cc4)nn32)CC1,,,"Sprague-Dawley rats, plasma","oral, 16 mg/kg, added: posaconazole 40 mg/kg",,MRT(0-t),5.56 ± 1.13 h
COc1cc(Nc2ncc3c(n2)-c2ccc(Cl)cc2C(c2c(F)cccc2OC)=NC3)ccc1C(=O)O,,"measured: decreased platelet count, all grades","cancer patients, phase 1/2","oral, dose not given, added: pembrolizumab",,patients with adverse event,21%
Cc1ccc(Sc2ccccc2N2CCNCC2)c(C)c1,,measured: Somnolence,healthy adult men,"oral, 20 mg single dose, 10 day",,participants with TEAE,0%
NC(N)=NCCC[C@@H](N)C(=O)N[C@@H](CCCN=C(N)N)C(=O)N1CCC[C@H]1C(=O)N1C[C@H](O)C[C@H]1C(=O)NCC(=O)N[C@@H](Cc1cccs1)C(=O)N[C@@H](CO)C(=O)N1Cc2ccccc2C[C@@H]1C(=O)N1[C@H](C(=O)N[C@@H](CCCN=C(N)N)C(=O)O)C[C@@H]2CCCC[C@@H]21,,popPK full model estimate,human,subcutaneous,,peripheral clearance (Q/F),0.396 L/h
N#Cc1ccc2c(c1)[C@H]1CCCN(C(=O)c3ccc4[nH]cnc4c3)[C@H]1C2,,,human,"40 mg, day 15",,median ACTH level,7.4 pmol/L
COc1ccc(C2CC(=O)c3c(O)cc(OS(=O)(=O)O)cc3O2)cc1O (stereo not drawn),,,human CSF,"concentration not given, mean",,CSF concentration,not detected
Nc1nc(N)c2nc(CNc3ccc(C(=O)N[C@@H](CCC(=O)O)C(=O)O)cc3)cnc2n1,human iPSC-derived cardiomyocytes,"MyBP-C/MYH ratio, plate-normalised SD score",,"concentration not given, primary screen",direction not given,activity score,3.3
Nc1nc2c(nc([N+](=O)[O-])n2[C@@H]2O[C@H](CO)[C@@H](O)[C@H]2O)c(=O)[nH]1,,"depurination, RP-HPLC",citrate-phosphate buffer 0.5 mM,"80 min, pH 2, 37 °C",,nucleoside remaining fraction,0.852
COc1cc(C(=O)NC2CCN(C)CC2)c(F)cc1Nc1ncc(C(F)(F)F)c(Oc2cccc3c2C(=O)N(C)C3)n1,,,"human, Taiwanese, plasma","oral, 200 mg once daily multiple dose, geometric mean",,AUC(0-tau) steady state,30.9 µM·h
C=CC(=O)Nc1cc(Nc2nccc(Nc3cc(Cl)c(F)cc3C(C)(C)O)n2)c(OC)cc1N1CC[C@@H](N(C)C)C1,,two-compartment PK model,mouse,,,absorption rate constant,0.49 h⁻¹
C=CCn1c(=O)c2cnc(Nc3ccc(N4CCN(C)CC4)cc3)nc2n1-c1cccc(C(C)(C)O)n1,,,human,"oral, 175 mg twice daily, monotherapy lead-in, -5 days",geometric mean,AUC(0-t),7.5 µM·h
CC1(C)S[C@@H]2[C@H](NC(=O)[C@H](N)c3ccc(O)cc3)C(=O)N2[C@H]1C(=O)O,,,"male Hartley guinea pigs, anaesthetized","intravenous, 3 mg/kg over 10 min, after infusion",,heart rate,214 ± 0.2 beats/min
O=C(O)c1ccccc1,,,human CSF,"concentration not given, mean",,CSF concentration,not detected
CNc1ccc(-c2nc3ccc(O)cc3s2)cc1 [carbon-11 labelled],,ex vivo biodistribution,"normal B6SJL mice, cecum","intravenous, 30 min",,uptake,0.413 ± 0.082 SUV
O=C(O)CCC(=O)O.[2H]C([2H])([2H])Oc1cc(C)c2[nH]ccc2c1CN1CC[C@@H](C2CC2)C[C@H]1c1ccc(C(=O)O)cc1,,multiple ascending dose,healthy Chinese subjects,100 mg twice daily,,subjects with increased creatinine TEAE,0%
COc1ccc(CCC(=O)O)cc1OS(=O)(=O)O,,,human CSF,"concentration not given, mean",,CSF concentration,not detected
CCCC(CCC)C(=O)Oc1cccc(C(O)CCN)c1.O=CO (stereo not drawn),,,"Abca4-/-Rdh8-/- mice, photic damage","intraperitoneal, 10 mg/kg, 7 days, flash intensity 30",,photopic S-cone ERG b-wave,50.1 µV and 52.1 µV and 60.8 µV and 59 µV and 47.4 µV and 48.5 µV and 54.6 µV and 51.9 µV
O=C(O)CCCOc1ccc([18F])cc1-c1cc(-c2ccccc2C(F)(F)F)n(-c2ccccc2)n1,,gamma counting,"male ddY mice, heart","intravenous, 2.1 MBq, 15 min",,radioactivity uptake,7.56 ± 0.87 SUV
O=C(COc1ccc(Cl)cc1)NC12CC(c3nnc([C@H]4C[C@@H](OC(F)(F)F)C4)o3)(C1)C2,,,"humans, MAD","oral, 45 mg once daily, 14 days",,post lumbar puncture syndrome,16.7%
